Results of several laboratories.
Parts stem from different laboratories: compare values within a part only.

Series 1 — method: RNA Bind-n-Seq; form: RNA; matrix: in vitro; concentration: 365 nM; reference: no-protein control; direction: higher = stronger binding
Target: RNA binding protein fox-1 homolog 2, RRM domain, GST-SBP tag (RBFOX2, Homo sapiens, UniProt O43251-10, residues 100-194)
Notes: natural RNA segment, single round, ends assumed
Shared flanks, not repeated: GGGAGUUCUACAGUCCGACGAUC … UGGAAUUCUCGGGUGCCAA
Construct (chain): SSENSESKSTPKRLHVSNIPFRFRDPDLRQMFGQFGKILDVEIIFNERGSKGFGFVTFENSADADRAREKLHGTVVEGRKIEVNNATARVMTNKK
Sequence	RBNS enrichment (R)
AAAUGCAAUGCUUCCUACCCCCGUCCUGUCACAGGCAGUCUGAGGACUCACCUUCACACGUGAGACUUCGCUCUUACCCCAGCCCCCACCGCUGGAGGGGUUUCAAUCCC	0.382
GCACCUAGAAGGGACAGAGGGUGGGGCUACCUGCUAUCAGGCAUGAACAUGUGAAUUGCUGGUUAGUAGGUGGUAUGCCUUGGGCACAUGUCACAUCUAAAUGCUGCUGG	0.805
GCUGCCUCCAGAAUGGUCUUUCUAAUGUGUGAAUCAGAGCACAGCAGCCCCUGCACAAAGCCCUUCCAUGUCGCCUCUGCAUUCAGGAUCAAACCCCGACCACCUGCCCA	0.487
ACAUUCAGGGUGUACAUAAACAGAAGAGUAUCAUAAUGUAUUUUUAUUAAACACUAACAUCUGAGUUUCACCUAAUCUGUUUCUGUGCCAUAUACUGGGUAUCCAAGCUC	0.308
UUGUGAGACAUUCACUUGCUCUUUUGCCAUAUUUAGAUGUGUCAGUGGAAUCAGAAACCUGUUUUGAUAUGUGUUCUCUAUGAGUUAAGUCUGAUUUGUCUUUUUAUUUC	0.631
UUUUGGGAAUUCAGACUGUGGAAACAUCGGACUUCCCUUUGCCCUUCCUCAACUUAGUGGCAAAGCCCUGUAUGGAUACUUGUAGGUGCGGGUGAUCCUCAAGGCCAUGC	0.522
CUGUAAUCCUUAAACUCGAUGUGGUAAGUAGGAAGCAAGAAUUUAUCCUGUGUUUUCAGGCAGCAGUAUGCUUACUUUAAUCUCAUUCGUUCUGUGGCUAGGAUUGCUAG	0.276
UCAAAGUACAUGGCCUGAGUUCUCUUCUGCCUCCCACAGCAAAGUUGAGGCUGCACUGUAGAGACACUAGCAAUGGCUUGGGACAGACAGGGUCCAAGUCUAGCCAGCCU	0.311
GACAUCGCUAAGUACUAAGGCCGCAGACUCCUGUCCGCAGCCUCGCAGCUCCGUGGGGCCCUCCGCCCCAGCCCCAGCCAGCCAGGCCCUGGUGGAAAGGCUGGGAGCCG	0.123
ACCCUUCUGGCCUUUUAGCGUCUUUGAAGGAGACCAGACAUGAGUGAAUACCUAGGAGAGUGUCAGCAUGUUUCUGGAAAAUUGGCAGAGACCAAGCCCUGCUGCAGAUU	7.1
CAGGACGCCGACCCUGCCUGGACGGCCCCGCCUGGACCGCCUGACCUCGGCCCUCCGGACCCGGCUGCGGCCCCCGCCUCCGAGACCAAAUAGAGACGCUGCUUCUCCCU	0.157
GCCUCUCUCACUGGUCAUGUAUUUAUUCCAUAUUUAUAUGGUCUACUUCCUGUGGCUGGGAGCAGCAGCUCCUGAAGGUUCCGUGGGGGUGCGGGGGGUUGGACAGGACA	0.292

Series 2 — method: universal PBM; form: double-stranded DNA, one strand shown; matrix: in vitro; concentration: 600 nM; direction: higher = stronger binding
Target: Sal-like protein 4, full length isoform A (SALL4, Homo sapiens, UniProt Q9UJQ4, residues 1-1053)
Sequence of UniProt Q9UJQ4 (whole entry, looked up): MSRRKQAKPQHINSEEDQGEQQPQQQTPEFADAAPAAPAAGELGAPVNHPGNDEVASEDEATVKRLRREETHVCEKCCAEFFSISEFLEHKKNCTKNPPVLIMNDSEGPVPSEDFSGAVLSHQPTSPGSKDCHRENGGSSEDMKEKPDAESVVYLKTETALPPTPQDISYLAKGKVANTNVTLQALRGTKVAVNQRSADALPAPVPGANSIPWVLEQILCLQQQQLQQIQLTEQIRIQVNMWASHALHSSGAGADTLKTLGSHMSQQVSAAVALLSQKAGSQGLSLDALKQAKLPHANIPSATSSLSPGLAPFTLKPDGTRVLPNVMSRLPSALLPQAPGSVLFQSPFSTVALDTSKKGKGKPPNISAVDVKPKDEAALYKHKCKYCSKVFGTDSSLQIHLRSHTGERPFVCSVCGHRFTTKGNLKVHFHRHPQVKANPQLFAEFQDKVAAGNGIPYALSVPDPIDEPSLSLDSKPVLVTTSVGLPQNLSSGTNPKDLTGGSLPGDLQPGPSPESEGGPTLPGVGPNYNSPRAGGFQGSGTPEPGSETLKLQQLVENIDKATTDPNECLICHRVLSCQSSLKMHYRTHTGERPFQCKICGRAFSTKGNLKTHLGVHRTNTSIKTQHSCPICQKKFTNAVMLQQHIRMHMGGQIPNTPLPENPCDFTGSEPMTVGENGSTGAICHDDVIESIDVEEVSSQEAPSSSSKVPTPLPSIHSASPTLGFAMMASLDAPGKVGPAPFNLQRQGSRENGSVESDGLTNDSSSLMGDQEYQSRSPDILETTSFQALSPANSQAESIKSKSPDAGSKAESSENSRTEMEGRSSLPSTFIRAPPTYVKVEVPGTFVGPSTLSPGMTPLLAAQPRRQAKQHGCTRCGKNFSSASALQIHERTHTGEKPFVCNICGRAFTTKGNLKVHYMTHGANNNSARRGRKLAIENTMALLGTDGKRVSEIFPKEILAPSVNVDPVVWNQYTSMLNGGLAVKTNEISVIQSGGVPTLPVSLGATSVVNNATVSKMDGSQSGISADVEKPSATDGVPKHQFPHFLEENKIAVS
Notes: 8-mer, flanks averaged, mean of replicates
Sequence	E-score
ACTAACAA	0.171
GCGCGTCC	-0.349
ACACCCAT	0.0866
CATCCAAA	0.0309
CCCATTAC	-0.043
AGGAATCG	-0.153
CACTGGCG	-0.116
GAGGCAGA	-0.185
AGGAGAAG	-0.0453
CATTAAGC	0.026
ACATAAGC	0.232
CCCTTTGA	-0.121
CTCTACAC	-0.103
ACCCTTCT	-0.0218
AGGTGGTA	0.0077
AGGGCAGG	-0.259
CGATGGAC	-0.075
ATGACTCA	0.144
CCGGTGTA	-0.208
GGTCAACA	0.0198
TAATAGAA	0.375
CCCTAGTC	-0.194
AAATCAAT	0.318

Series 3 — method: RNA Bind-n-Seq; form: RNA; matrix: in vitro; concentration: not given; reference: input RNA pool; direction: higher = stronger binding
Target: RING finger protein unkempt homolog, zinc fingers 1-6, GST-SBP tag (UNK, Homo sapiens, UniProt Q9C0B0, residues 30-357)
Sequence of UniProt Q9C0B0 (30-357, looked up): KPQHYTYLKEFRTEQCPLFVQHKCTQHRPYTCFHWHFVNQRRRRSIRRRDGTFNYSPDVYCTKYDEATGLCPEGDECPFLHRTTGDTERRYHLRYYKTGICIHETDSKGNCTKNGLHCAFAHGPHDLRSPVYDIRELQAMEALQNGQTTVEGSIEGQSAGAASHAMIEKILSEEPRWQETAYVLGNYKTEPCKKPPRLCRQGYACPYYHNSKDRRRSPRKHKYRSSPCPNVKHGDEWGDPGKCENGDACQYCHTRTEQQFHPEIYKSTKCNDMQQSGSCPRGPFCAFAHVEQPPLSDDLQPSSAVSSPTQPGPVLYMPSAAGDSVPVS
Notes: RNA with constant flanks, human-mouse chimeric sites, ends assumed
Shared flanks, not repeated: GGGAGUUCUACAGUCCGACGAUC … CAACAGAGGAUUGAGCAUCA
Sequence	bound/input enrichment
UUGAAAACUGAUUCAAGUAAGUUUGAGUAUCACAAUGUUAGCUUUCUAAUUCCACACAAGUACUUGGUUUUUACAGUUUAUAAUCUGACAUCACCCCAGCGCCAUUUAGAUCAGCUUACU	1.24 ratio
UCUUAACUUAUUCAUUUAACUUAUUUUUAUAGCUAGAUAAAUAUUGUUAGUCUUAGAGAGUAGUUCACAUUUUUUGAGAAGCAUGCCCUCCCUGUCCAUUGGGCCCAUAACAUGACCCAG	10.5 ratio
GCUCCUCCCCGCUCUGCAGCCUGGGGACACUGGGCUGGGACCAGAAUCCAGCUUUCUUUUAAUAGUGUCAGUGUAACUGUAUCCCGUUUUUUUCUUUUUUUUUUAAAUAGUGUAUUUUUU	22.9 ratio
GUAUACGGUUAUCGAGGAAAGGACUGUAGAGCGAAUGUAUACCUGCUUCCGACCGGGGAGAUAGUUUAUUUUAUCGCAUCAGUAGUAGUCCUGUUUAAUUAUGAGGAGAGGACUCAGCGA	3.61 ratio
AUGGAAAAGGAUUCUCUGCCUCGCUUUGUGCGCUCUGAAUUUUAUAAGGAGCUAAUCAAGUAGUCAUCUGGUCAGGCUUCCAAAAGUUGCCCUGUGAGUUGAGUUACAUCCUUUGUAGCA	0.216 ratio
CUGUGACCACAAGAUCCUACCUGAGUGGCAGCUGAAGCACUUUUCUUCUCCUUGCCUGAACCCCCCCCCACUGCCCCUUGAGUCCACAGUGUCGGCUGAGAUGUUGCCUCUGCACGGUUC	0.453 ratio
CUGUGACCACAAGAUCCUACCUGAGUGUUCAGAUGGGCACUUUUCUUCUCCUUGCCUGAACCCCCCCCCACUGCCCCCCCAUCCCCCAGUGUCGGCUGAGAUGUUGCCUCUGCACGGUUC	1.32 ratio
CACAGAGCAGCACCUACCCCCUCCUCCUUUCCACACCUGCAAACCCUUUUACUUGGGCUGAAUAUUUAGUGUAAUUAACAUCGCAGCUUGAGGGCUCCUGUGGCAAAUUCCCGGAUUAAA	1.47 ratio
CAGCCUCAGAGCCCAGACUUCCUGGACAUUACCAACCCUAAAGCGGUAUUAGAAAAUGCAUUGAGAAACUUCGCCUGUCUGACCACCGGAGAUGUGAUUGCUAUCAACUACAAUGAGAAG	0.511 ratio
CAGCCUCAGAGCCCAGACUUCCUGGAUAUCACCAACCCCAAAGCCGUAUUAGAAAAUGCAUUGAGAAACUUCGCCUGUCUGACGACUGGAGAUGUGAUUGCUAUCAACUACAAUGAGAAG	0.521 ratio
AAAGAGAAACUAAAGCAACUAAUAGAGAAGAGGAUUGGGCAAAGAGAUUUCAUAGAGGAAACUAGGAUUAUUAGCAAACAUGAGUUAUAUUCCAGAGCGUCUCAGAAACCCCAGCCAAAC	3 ratio

Series 4 — method: RNA Bind-n-Seq; form: RNA; matrix: in vitro; concentration: 200 nM; notes: whole 134-nt RNA, ends assumed; together with: 150 mM LiCl; reference: input library; direction: higher = stronger binding; all molecules: 7-deaza-guanosine replaces G
Target: Fragile X messenger ribonucleoprotein 1, C-terminal low-complexity region (Fmr1, Mus musculus, UniProt P35922)
Shared flanks, not repeated: GGGAGUUCUACAGUCCGACGAUC … UGGAAUUCUCGGGUGUCAAGG
Sequence	log2 enrichment
GCAGGAAGUAAAAACAAAUGGAAAUGCUUCGGAUAGUGGCAGGGGUGGGGGUUGCUAAGGAAAAAAUGGGAUGGGAGUGGGUAAAGAGUU	1.57
UGUCGGGGCCAAAGUGGUAACGAACGCCCGCAGCCCGGGGGCUCGAUGCUAUGGAUUCGUCACCAUGUCGACAUCUGACGAGGCGACCAA	-2.92
UGUGCUACACAUCGUAUGUACCGAAUCGGGGAAAAAAAGGGGUUUUUGGGGAAAAAAAGGGGAAAGUAUUAUGUUACGCCGUUCGGAUCU	-0.0547
UGGCUUCGAAGUACAGUCUUUGCAGGAUGCAGGAAAUCAGCUUGGUAUGGAGGAUACAUCUCUGAGCUCUGGAAUGCUCACCCAGAACAC	-2.46
UCCUGUGCUACACAUCGUAUGUACCGAAUCGGGAAAAAAGGAAAAAAGGGGAAAAAAGGGAAAGUAUUAUGUUACGCCGUUCGGAUCUGC	-0.499
UAUUCCAAUGUCUGUGGGAAUAAUUGACACAAGGACGAAUCCAAGCCAGUUAAAUGCGGUUGAAUUUCUGUGGGACCCAGCAAAACGCAC	-0.228
UUUCUUCUGCUGCUGCUAGUCAUGAGAUCAAGGUGGGUCUGAGAAUGGCCAUUCAGAGGCCCUGGAUAGUAACCAGGUAAUGGAUGACAC	-0.467
GAGUCCGGUUCGUGUUCGUCCGCGGAGAUCUCUCUCAUCUCGCUCGGCUGCGGGAAAUCGGGCUGAAGCGACUGAGUCCGCGAUGGAGGU	-2.07
GCAGGAAGUAAAAACAAAUGGAAAUCCUUCGGAUAGUGGCAGGGGUGGGGGUUGCUAAGGAAAGGGUGGGAUGGGAGUGGGUAAAGAGUU	1.72
UCCUGUGCUACACAUCGUAUGUACCGAAUCAAAUUUAAACCCCCCCAAAUUUUUUUAAAAAAGUAUUAUGUUACGCCGUUCGGAUCUGCA	2.15
AGUCCUGUGCUACACAUCGUAUGUACCGAAUCGGGGAAAGGGGAAAGGGGAAAGGGGAAAGUAUUAUGUUACGCCGUUCGGAUCUGCACU	0.253

Repeated from above (series 2):
Sequence	E-score
AGGAATCG	-0.153
CGATGGAC	-0.075
ATGACTCA	0.144
ACTAACAA	0.171
AGGTGGTA	0.0077
CCCTAGTC	-0.194
CACTGGCG	-0.116
